Published values from different studies.
A part holds a random share of what one study measured. Changes are numbered by the printed parent chain.

Block 1
Target: Histone acetyltransferase KAT6A, winged helix 1, GST fusion (KAT6A, Homo sapiens, UniProt Q92794, residues 1-85)
Technique: protein binding microarray
Form: double-stranded DNA, one strand shown
Sample: in vitro
Tested at: not given
Notes: 8-mer, flanks averaged, mean of 2 arrays, mostly near background
Relative to: not given
Reading: higher = stronger binding
Measurement: E-score
Residues (chain): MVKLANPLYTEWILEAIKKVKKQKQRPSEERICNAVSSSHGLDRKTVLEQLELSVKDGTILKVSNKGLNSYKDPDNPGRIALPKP
GGTACCGA: 0.211
GAGCTCAA: 0.0388
GAGTTGAA: -0.161
ACCCTAGC: -0.0824
TAGAAATA: -0.278
AGCTCTGG: -0.201
CCTAAAAC: -0.0118
GCGAGCTA: 0.00756
CGACTTGA: -0.118
ATTTAACA: -0.174
GTGTCGAA: -0.225
CCTTGTAC: -0.126
CAGGTACC: -0.0533
TCTCGCAA: 0.0238
CTCCATAA: -0.221
GCCTTAAA: 0.0288
GCGTAAAC: 0.295

Block 2
Target: ABI1, truncated, D143A, DHFR fusion (Arabidopsis thaliana)
Technique: DHFR PCA, deep sequencing
Sample: yeast
Notes: methotrexate growth selection, single substitutions
Together with: (+)-ABA 0.0091 µM
Relative to: wild-type fitted maximum
Reading: higher = stronger binding
Measurement: relative binding score
Starting sequence: PYL1, truncated, DHFR fusion (Arabidopsis thaliana); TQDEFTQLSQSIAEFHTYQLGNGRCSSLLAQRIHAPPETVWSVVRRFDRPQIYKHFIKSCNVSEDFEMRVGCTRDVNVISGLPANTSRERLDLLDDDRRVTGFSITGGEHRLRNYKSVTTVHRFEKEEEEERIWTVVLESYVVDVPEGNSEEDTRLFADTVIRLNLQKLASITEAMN
P83D: 12.1%
R32K: 29.6%
I162V: 31.8%
F103S: -1.51%
E131D: 44.2%
D144E: -0.302%
G102P: -2.23%
V78S: 14.1%
S80I: 26.6%
E67T: 15.3%
T173W: -1.3%

Block 3
Target: CCND3, cyclin fold, Cln2 fusion (human)
Technique: yeast growth competition, sequencing
Sample: yeast
Notes: weak parent motif
Relative to: not given
Reading: higher = stronger binding
Measurement: normalised enrichment score
Starting sequence: MICAL3 docking peptide (human); LQLRRQLSFSEDS; partner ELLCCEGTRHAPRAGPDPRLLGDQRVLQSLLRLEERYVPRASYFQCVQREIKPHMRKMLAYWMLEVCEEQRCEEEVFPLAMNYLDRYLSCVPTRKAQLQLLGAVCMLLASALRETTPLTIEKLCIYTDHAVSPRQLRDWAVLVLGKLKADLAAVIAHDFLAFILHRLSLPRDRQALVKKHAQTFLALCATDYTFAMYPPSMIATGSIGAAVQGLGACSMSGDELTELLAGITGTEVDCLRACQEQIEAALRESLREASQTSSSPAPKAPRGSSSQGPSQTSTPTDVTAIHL
LQLRRQTSFSEDS [L7T]: 0.107
LQLRRQLSFSEMS [D12M]: 0.199
LQLRRQLSSSEDS [F9S]: -0.316
LQLERQLSFSEDS [R4E]: -0.199
LQLRRQLSFMEDS [S10M]: 0.179
LQLQRQLSFSEDS [R4Q]: -0.178
LQLRRQLSDSEDS [F9D]: -0.0276
LQLRRQLSFSEPS [D12P]: 0.108
LLLRRQLSFSEDS [Q2L]: 0.424
LQLRRQLSFSEYS [D12Y]: 0.0753
LQLRRQLSFHEDS [S10H]: 0.0044
LQLRRQLGFSEDS [S8G]: 0.0483
LQLRRVLSFSEDS [Q6V]: 0.213
LQLRRQLFFSEDS [S8F]: 0.601
LPLRRQLSFSEDS [Q2P]: 0.145
LHLRRQLSFSEDS [Q2H]: 0.18
LQLRRQLSFVEDS [S10V]: -0.135
LQLRRQLSFGEDS [S10G]: 0.2
LQLMRQLSFSEDS [R4M]: -0.35
LQLDRQLSFSEDS [R4D]: -0.118
LQLRRQLSFSEFS [D12F]: -0.0275
LQLRRQLSFSPDS [E11P]: 0.108
LQLRRQLSFSVDS [E11V]: 0.0574
LQRRRQLSFSEDS [L3R]: 0.52
LQLRRKLSFSEDS [Q6K]: -0.202

Block 4
Target: RNA binding protein fox-1 homolog 2, RRM domain, GST-SBP tag (RBFOX2, Homo sapiens, UniProt O43251-10, residues 100-194)
Technique: RNA Bind-n-Seq
Form: RNA
Sample: in vitro
Tested at: 365 nM
Notes: natural RNA segment, single round, ends assumed
Relative to: no-protein control
Reading: higher = stronger binding
Measurement: RBNS enrichment (R)
All sequences stand within: GGGAGUUCUACAGUCCGACGAUC … UGGAAUUCUCGGGUGCCAA
Residues (chain): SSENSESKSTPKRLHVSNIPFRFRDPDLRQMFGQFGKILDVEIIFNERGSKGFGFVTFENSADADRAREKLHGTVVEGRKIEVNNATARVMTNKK
AGUGGUGUUUCUACUCCAGUGAGGUACUUUCUACCAUGGUGUGCCUUUUGCUGUGAGUGACUUAACAGUGCAGGUUCUUGUUGCCUUCACUGUUAACCCUGAGAGCACAU: 0.227
ACUUAAAUCCUUAAAAGAUUGCUUCGUUUUUAAAAUAACGCAUGUCCAUUUUAGAAAAUUAGAAAAUCAGUCCCACCACCCAAAGAUUAUUGUGCAUGCUGAAAAGAGUA: 55.4
UGGCCUCUGAAGAAGGUGACUCUUCAGGUAAGACUGAUGGAGGCUACACCGACAAACCGCAGACACGCAGGAUCUGCUCAGAGAUUGCAGAAGAGCGUGGCCUCUCUUAU: 0.594
AUUAUAUUCUUUAUAAGGCGUGUGCCAGCCUGUAUAGUAUAUAAGAGAGAGGGGUGUUUGUGUGUAUAUAUAUAUGCCUUUGUGUAUACACUUAUCAAAGCUAUUUUCUU: 1.3
UGUCAGCAGUCUCUGCCCUCUCGAGAGAGAUGAGCAGCCUCAACUGACGUUUCUAUUAAUGAGUUAUCAGAAGUUGCAACAUCUCUCCAGCACUAAUGUGUUUUGUCCAC: 0.228
GGACACUCAAGGGUACAGUUUGACACUGAUCUGGUCCAUGAGGCUGCCCAGAGAAAGCACUGCUUCUGUAUGUCUCUUGUGGUAUUGGAACAAUAAACCCGUACAACCUG: 0.416
GGCCAGCAGGAGUGCUUCACAGCAGUCCUGCUUAGUACCGUUGAAGAGACUCAGUUUACCUUAGUGCCUUAGAGGAUGCUAGGUCCUCUGACUGACAUUCCUCAGUGGUC: 0.16
UACCUUGCCCUCAGCCUAUCCCUGAACUAAACAGGACCCACUGAGUCCCAGCCUCAGCAGGCUGCUUGUCUUCAGUUGAUGGUGGAUUAAUGACAGAAGGAAGCCCCGCC: 0.235
GUAUGUUGUUAGUUUUGAAAGACAUUCACUCAAGGAAAACACCAUCUCAACUUUGCCCGCUCACCAUGUCCCUUGCCCCCAUGUAGCCCAUUUCCCAGGUUAUGCUCUUU: 2.65
GUGGGCCAGUACUAACUUAACUUGGUGUUCAGCAAGGGAUGCAGACGGAGAGCUCCCUUCUGCAGGACUAAGCAGAUGCGUGUCUUUCCCACCCGUGACUGUAAGAAUGC: 3.88
CCAUCCAGUUGGGAAGCCAUGAUUUUCCUAAGAAUCCAGGGCCAUGGGAGAUACAAUUCCAAGUUCUCGCUUCCUCCUUUGGGCAUCUCUUCUGCCUCCCAAUCAAGGAA: 0.351
UGAGACACAGCCUUCUGCCUCCUCGCCUCUCCUGGACUGGCUUCCUCUUUGAGAAAAUGCACAAAGCCCUGGGAGAUGACAAGCACAAGGACUGACUCAAGCUGUGUCUU: 1.02

Block 5
Target: TAR DNA-binding protein 43, full length, His tag (TARDBP, Homo sapiens, UniProt Q13148, residues 1-414)
Technique: RNA Bind-n-Seq
Form: RNA
Sample: in vitro
Tested at: 20 nM
Notes: 6-mer, flanks averaged, single round
Together with: 150 mM LiCl
Relative to: input library
Reading: higher = stronger binding
Measurement: 6-mer enrichment (R)
ACGGUU: 0.905
GCUAAC: 0.854
CUGCGA: 0.86
ACAUUA: 0.895
AACGAC: 0.751
AAUCGA: 0.787
GCCUCG: 0.88
GUGUCU: 1.14
CCGAUC: 0.85
UUGAGG: 1.15
UUUGUG: 1.7
CGAGCG: 0.947
UAAAGG: 0.924
AAUAAC: 1.12
AUAUAA: 0.988
CUCAAA: 0.824
GGGUCC: 1.02
CAUGCG: 0.946
GCGAAG: 0.975
CUCUUG: 0.942
UAUAGC: 0.902

For quick reference, copied from above (block 5):
AACGAC: 0.751
AAUCGA: 0.787
GCCUCG: 0.88
GUGUCU: 1.14
CCGAUC: 0.85
UUGAGG: 1.15
UUUGUG: 1.7
CGAGCG: 0.947
UAAAGG: 0.924
AAUAAC: 1.12
